Measured values of several laboratories.
Compare with care: the assays were run in different laboratories. Several values in a cell are separate wells, animals, samples, runs or records. ± marks the error that the study gave.

For `Oc1ccccc1-c1n[nH]cc1-c1ccnc2ccccc12`, “log2 fold change” read 0.05 (ENV7 (Candida albicans); kinase binding, MIB/MS competition; Candida albicans lysate; 1 µM; baseline: DMSO).
For `Cc1ncsc1-c1ccc([C@H](C)NC(=O)[C@@H]2C[C@@H](O)CN2C(=O)[C@@H](NC(=O)COCCOCCOCCOCCOCC(=O)N2CC(Nc3cc(C(=O)NC[C@H](O)CN4CCc5ccccc5C4)ncn3)C2)C(C)(C)C)cc1`, the Dmax was ~50% (human MEP50; degrader, Western blot; MDA-MB-468; 72 h).
`C[C@@H]1CCN(c2nccc(-c3cnn4ncccc34)n2)C1` — result for “percent of control”: 100% (human FLT3 ITD; KINOMEscan binding; 1000 nM).
`O=C(Nc1c[nH]nc1C(=O)NC1CCNCC1)c1cc(F)cc(F)c1` gave a remaining binding of 92% (human FLT3 ITD; scanMAX; 1 µM; baseline: control).
With `COc1cc(C(=O)Nc2cc(OCCN3CCCC3)c3ccccc3n2)nc(C(=O)Nc2cc(OCCN3CCCC3)c3ccccc3n2)c1` the ΔTm was 17.8 ± 0.7 K (K-ras G-quadruplex DNA; FRET melting; 1 µM, pH 7.4, added: 60 mM potassium).
`CCN(CC)CCNC(=O)c1ccc(-c2noc(C(F)(F)F)n2)cc1` has an IC50 of 3.98 ± 1.1 µM (HDAC; enzyme activity, inhibitor; CAL-27; 18 h, added: Boc-Lys(ε-Ac)-AMC substrate).
With `NCCCOc1cc(NC(=O)c2cc(OCCN)cc(C(=O)Nc3cc(OCCCN)c4ccccc4n3)n2)nc2ccccc12` the ΔTm was 29.9 ± 0.9 K (K-ras G-quadruplex DNA; FRET melting; 1 µM, pH 7.4, added: 60 mM potassium).
`CC(=O)NCCCC[C@H](NC(=O)CNC(=O)[C@H](CCCNC(=N)N)NC(C)=O)C(=O)Nc1ccc2c(C)cc(=O)oc2c1` has a kcat of 0.0004 ± 0.0002 s⁻¹ (human Y386F/Y782F mutant enzyme; substrate, fluorogenic).
For `Nc1cc(COc2c(Cl)cc(C[C@H](N)C(=O)O)cc2Cl)c2oc(-c3ccccc3)nc2c1`, the L-leucine uptake was 5.12 nmol/6 min/mg protein and 4.87 nmol/6 min/mg protein and 4.3 nmol/6 min/mg protein (B0AT1, LAT1, ASCT2; radiolabelled uptake; CHO-BC cells; 3 µM, without Na+, added: L-[14C]leucine, GPNA 3 mM).
The remaining binding of `CNC(=O)c1ccccc1Nc1cc(Nc2ccc(N3CCOCC3)cc2OC)ncc1C(F)(F)F` is reported as < 10% (RSK1; KINOMEscan; 1 µM; baseline: control).
For `CC(Nc1nc(N2CCCC2)nc2ccccc12)c1ccccc1` (stereo not shown), “cells with nuclear reporter” read 96.3% (transportin-1/2; FUS nuclear import, high content imaging; HeLa Kyoto reporter; 0.32 µM, 2 h).
`COc1ccc([C@H]2OC[C@H](Cc3ccc(C(C)(C)C)cc3)[C@@H]2CO)cc1OC` gave an IC50 of ≥ 20 µM (NF-κB; reporter gene; HEK293/NF-κB-luc; 4 h, added: TNFα 2 ng/mL).
For `COc1cccc(CNC(=O)C#Cc2cn(Cc3ccc(C(=O)O)cc3)c(=O)[nH]c2=O)c1`, “remaining MMP-2 activity” read 76 ± 21% (MMP-2; inhibitor, colorimetric; 20 µM).
`CC(=O)ON=C1C=CC(=C(C#N)c2ccccc2)C=C1` has a remaining activity of 81% (pig CK1 delta/epsilon; enzyme activity, inhibitor, ADP-Glo; 20 µM, about MIC, added: ATP 10 µM).
`CN(C)CCCOc1cc(NC(=O)c2cccc(C(=O)Nc3cc(OCCCN(C)C)c4ccccc4n3)n2)nc2ccccc12` has a ΔTm of 16.7 ± 0.4 K (K-ras G-quadruplex DNA; FRET melting; 1 µM, pH 7.4, added: 60 mM potassium).
`c1coc(-c2n[nH]cc2-c2ccnc3ccccc23)c1` — result for “log2 fold change”: 0.13 (CMK2 (Candida albicans); kinase binding, MIB/MS competition; Candida albicans lysate; 10 µM; baseline: DMSO).
`CCCC(CCC)c1nc2c(Nc3ccc(C#CCCCCCCCCN)cc3)nc3ccccc3c2[nH]1` — result for affinity: “inactive” (GABAA receptor; PDSP screening).
`O=C(Nc1cc(OCCN2CCCC2)c2ccccc2n1)c1cc(OCc2ccc(F)cc2)cc(C(=O)Nc2cc(OCCN3CCCC3)c3ccccc3n2)n1` has a ΔTm of 3.2 ± 0.4 K (K-ras G-quadruplex DNA; FRET melting; 1 µM, pH 7.4, added: 60 mM potassium).
With `COc1ccc(C[C@H]2CO[C@H](c3ccc(OC)c(OC)c3)[C@H]2COC(=O)C=C(C)C)cc1OC` the IC50 was 5.3 µM (NF-κB; reporter gene; HEK293/NF-κB-luc; 4 h, added: TNFα 2 ng/mL).
For `CC(C)C[C@H](NC(=O)[C@@H](CCCCNC(=O)CCCCCN1C(=CC=CC=CC2=[N+](C)c3ccc(S(=O)(=O)O)cc3C2(C)C)C(C)(C)c2cc(S(=O)(=O)[O-])ccc21)NC(=O)[C@H](Cc1ccc(O)cc1)NC(=O)[C@H](CO)NC(=O)[C@H](Cc1c[nH]c2ccccc12)NC(=O)[C@H](Cc1c[nH]cn1)NC(=O)[C@@H]1CCC(=O)N1)C(=O)N[C@@H](CCCNC(=N)N)C(=O)N1CCC[C@H]1C(=O)NCC(N)=O`, “maximal ERK1/2 phosphorylation” read 17 ± 6.7 fold (GnRH receptor (rat); agonist, Western blot; 10 nM, 5 min; baseline: basal).
For `CSCC[C@@H]1NC(=O)[C@H](C)NC(=O)[C@H](CCC(N)=O)NC(=O)[C@H](CCCNC(=N)N)NC(=O)[C@H](Cc2c[nH]c3ccccc23)NC(=O)CNC(=O)[C@H](CCSC)NC(=O)[C@@H]2CCCN2C(=O)[C@H](C)NC(=O)[C@@H](NC(=O)CN)CSSC[C@@H]2NC(=O)CNC(=O)[C@H](C)NC(=O)[C@H](CC(C)C)NC(=O)[C@@H]3CSSC[C@@H](C(=O)NCC(=O)O)NC(=O)[C@H](Cc4ccccc4)NC(=O)CNC(=O)[C@H](CC(N)=O)NC(=O)[C@@H]4CCCN4C(=O)CNC(=O)[C@H](CSSC[C@H](NC(=O)[C@H](CCCNC(=N)N)NC1=O)C(=O)N[C@@H](CCCCN)C(=O)N[C@@H](CCC(N)=O)C(=O)N[C@@H](CC(=O)O)C(=O)N[C@@H](CO)C(=O)N[C@@H](CC(=O)O)C(=O)N3)NC(=O)[C@H](C(C)C)NC2=O`, the IC50 was 1.08 µM (classical complement pathway; inhibitor, ELISA, refers to: C5b-9; 1% normal human serum; 1 h, 37 °C, IgM-coated plate, partial inhibition).
For `CCN(CC)CCNC(=O)c1c(C)[nH]c(/C=C2\C(=O)Nc3ccc(F)cc32)c1C`, the inhibition was -1% (JNK1α1 (human); kinase activity, inhibitor; 10 µM).
With `COc1ccc(F)cc1C(=O)NCc1ccc(-c2nn([C@@H](C)C(F)(F)F)c(N)c2C(N)=O)cc1` the IC50 was 3.79 ± 1.31 µM (MEK1/MEK2 human; ERK1/2 phosphorylation; A-375).
`CC(=O)c1nn(CC(=O)N2C[C@H](F)C[C@H]2C(=O)Nc2cccc(Br)n2)c2ccc(-c3cnc(C)nc3)cc12` has an inhibition of 0.1% (trypsin (human); enzyme activity; human pancreas; 10 µM).
With `CN(C)CCCOc1cc(NC(=O)c2cc(Cl)cc(C(=O)Nc3cc(OCCCN(C)C)c4ccccc4n3)n2)nc2ccccc12` the ΔTm was 18.3 ± 0.4 K (K-ras G-quadruplex DNA; FRET melting; 1 µM, pH 7.4, added: 60 mM potassium).
For `CNC(=O)c1cc(Oc2ccc(NC(=O)Nc3ccc(Cl)c(C(F)(F)F)c3)cc2)ccn1`, the inhibition was 7% (JNK1α1 (human); kinase activity, inhibitor; 10 µM).
`COc1cnc(Nc2cccc(S(N)(=O)=O)c2)nc1N1CCN(c2ccccc2)C(=O)C1`: “percent of control” 91% (human FLT3 ITD; binding, KINOMEscan; 1000 nM; lower = stronger binding).
`NCCOc1cc(NC(=O)c2cccc(C(=O)Nc3cc(OCCN)c4ccccc4n3)n2)nc2ccccc12` gave a ΔTm of 15.2 ± 0.7 K (K-ras G-quadruplex DNA; FRET melting; 1 µM, pH 7.4, added: 60 mM potassium).
For `CC[C@@H]1[C@H](F)C(=O)N[C@@H]1COc1nccc2cc(C(N)=O)c(OC)cc12`, the inhibition was 20.3% (CK1 delta and epsilon; ATP-site probe binding, inhibitor, ActivX ATP probe profiling; THP-1 cell lysate; 0.04 mM, probe site Lys2).
For `Cl.NCCC[C@H](N)C(=O)O`, the MyBP-C/MYH ratio was 14.2 (MyBP-C and MYH; iPSC-derived cardiomyocytes (human); concentration not given; baseline: plate controls (SD units)).
`C#Cc1cc(-c2cc(Nc3nc(N[C@@H](C)c4ccc(F)cn4)ncc3Cl)n[nH]2)ccc1C=O` has an inhibition of 35% and 33.2% (SRM kinase fusion, human; kinase activity, inhibitor; 0.2 µM).

For quick reference, copied from above:
`CCCC(CCC)c1nc2c(Nc3ccc(C#CCCCCCCCCN)cc3)nc3ccccc3c2[nH]1` — result for affinity: “inactive” (GABAA receptor; PDSP screening).
For `CC[C@@H]1[C@H](F)C(=O)N[C@@H]1COc1nccc2cc(C(N)=O)c(OC)cc12`, the inhibition was 20.3% (CK1 delta and epsilon; ATP-site probe binding, inhibitor, ActivX ATP probe profiling; THP-1 cell lysate; 0.04 mM, probe site Lys2).
`O=C(Nc1cc(OCCN2CCCC2)c2ccccc2n1)c1cc(OCc2ccc(F)cc2)cc(C(=O)Nc2cc(OCCN3CCCC3)c3ccccc3n2)n1` has a ΔTm of 3.2 ± 0.4 K (K-ras G-quadruplex DNA; FRET melting; 1 µM, pH 7.4, added: 60 mM potassium).
